Published values pooled from the literature.
Numbered parts are unrelated; each lists some results of a single study. Changes are numbered by the printed parent chain.

Sample 1 — target: CCNA1, cyclin fold, Cln2 fusion (human); technique: yeast growth competition, sequencing; matrix: yeast; notes: weak parent motif; relative to: not given; direction: higher = stronger binding; endpoint: normalised enrichment score
Starting sequence: CDKN1A docking peptide (human); SKACRRLFGPVDS; partner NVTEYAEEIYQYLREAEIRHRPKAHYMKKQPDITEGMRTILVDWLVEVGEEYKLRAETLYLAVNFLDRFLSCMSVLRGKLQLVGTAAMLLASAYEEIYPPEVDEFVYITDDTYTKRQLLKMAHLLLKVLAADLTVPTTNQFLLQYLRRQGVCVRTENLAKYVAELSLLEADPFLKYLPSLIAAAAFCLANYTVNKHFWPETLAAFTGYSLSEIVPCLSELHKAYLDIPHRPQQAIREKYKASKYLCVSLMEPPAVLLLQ
C4D: 0.179
V11A: 0.697
A3G: 0.0301
P10H: 0.0334
L7M: 0.289

Sample 2 — technique: protein-binding microarray; form: double-stranded DNA, one strand shown; matrix: in vitro; tested at: 2540 nM top; notes: 60-bp whole probe; with: salmon DNA 0.4 mg/ml; relative to: random background probes; direction: higher = stronger binding; endpoint: fitted relative affinity
Target: Interferon regulatory factor 3, full length, phosphomimetic (IRF3, Homo sapiens, UniProt Q14653, residues 1-427, S386D/S396D/S398D/S402D/T404D/S405D)
Shared flanks, not repeated: GCCTAGCAC … GTGCTAGGTCTTGATTCGCTTGACGCTGCTG
Residues (chain): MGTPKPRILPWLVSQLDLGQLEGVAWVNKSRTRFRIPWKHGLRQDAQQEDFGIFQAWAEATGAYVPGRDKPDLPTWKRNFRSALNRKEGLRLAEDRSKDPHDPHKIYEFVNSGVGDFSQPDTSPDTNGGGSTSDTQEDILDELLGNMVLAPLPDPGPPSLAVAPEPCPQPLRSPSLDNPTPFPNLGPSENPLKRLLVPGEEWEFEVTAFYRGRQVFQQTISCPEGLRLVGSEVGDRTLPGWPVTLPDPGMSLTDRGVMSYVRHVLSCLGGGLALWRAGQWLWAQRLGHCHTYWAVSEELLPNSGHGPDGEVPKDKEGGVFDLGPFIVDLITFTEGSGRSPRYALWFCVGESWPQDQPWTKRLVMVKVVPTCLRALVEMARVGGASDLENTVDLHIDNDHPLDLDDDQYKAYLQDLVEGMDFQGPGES
TTAGAACCGAGTATCGATTA: 0.365 z-score
CTTTAACTCATTCTCCACTT: 1.71 z-score
GAAGGTTTCCTTTTCCTGAC: 10.5 z-score
GAGGGTCTCGGACTGGGGAC: -0.997 z-score
CTCTCTTTCCAACTCTGTTT: 3.79 z-score
CTCGGTTTCCAAATTGTCTC: 6.69 z-score
TCAACTCTCTGCTTGTAACT: 0.17 z-score

Sample 3 — technique: protein binding microarray; form: double-stranded DNA, one strand shown; matrix: in vitro; tested at: not given; relative to: not given; direction: higher = stronger binding; endpoint: E-score
Target: Histone acetyltransferase KAT6A, both winged helices, GST fusion (KAT6A, Homo sapiens, UniProt Q92794, residues 1-181)
Notes: 8-mer, flanks averaged, mean of 2 arrays, mostly near background
Residues (chain): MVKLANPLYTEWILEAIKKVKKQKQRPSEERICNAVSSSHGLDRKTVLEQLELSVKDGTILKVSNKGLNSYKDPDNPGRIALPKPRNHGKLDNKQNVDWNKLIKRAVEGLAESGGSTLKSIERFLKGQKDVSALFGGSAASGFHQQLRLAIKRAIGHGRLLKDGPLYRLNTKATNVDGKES
CCCTGACG: 0.0401
AGAATGTA: -0.0293
AGGGCGGA: 0.134
AGAGCAAG: -0.133
AAATACCT: -0.0939
AACCGCGG: 0.382
TAAGCGTA: 0.143
AAGTCAAA: -0.113

Mixed results
PhoQ, residues 284 288 289 292 302 303 SNSSNI — fold induction (PhoP, residues 12 14 15 18 19 AGCRL (Escherichia coli, UniProt P23836); Sort-seq, refers to: YFP reporter; E. coli; PhoQ-PhoP variant library, with: 10 µM Mg2+; relative to: high Mg2+ state, higher = stronger signaling): 6.24

Excerpt of the above (sample 2):
CTCTCTTTCCAACTCTGTTT: 3.79 z-score
GAGGGTCTCGGACTGGGGAC: -0.997 z-score
TTAGAACCGAGTATCGATTA: 0.365 z-score
